Published values collected from several papers.
Compare with care: the assays were run in different laboratories. Several values in a cell are separate wells, animals, samples, runs or records. ± gives the spread as reported.
UniProt P33261, sequence (whole entry, looked up): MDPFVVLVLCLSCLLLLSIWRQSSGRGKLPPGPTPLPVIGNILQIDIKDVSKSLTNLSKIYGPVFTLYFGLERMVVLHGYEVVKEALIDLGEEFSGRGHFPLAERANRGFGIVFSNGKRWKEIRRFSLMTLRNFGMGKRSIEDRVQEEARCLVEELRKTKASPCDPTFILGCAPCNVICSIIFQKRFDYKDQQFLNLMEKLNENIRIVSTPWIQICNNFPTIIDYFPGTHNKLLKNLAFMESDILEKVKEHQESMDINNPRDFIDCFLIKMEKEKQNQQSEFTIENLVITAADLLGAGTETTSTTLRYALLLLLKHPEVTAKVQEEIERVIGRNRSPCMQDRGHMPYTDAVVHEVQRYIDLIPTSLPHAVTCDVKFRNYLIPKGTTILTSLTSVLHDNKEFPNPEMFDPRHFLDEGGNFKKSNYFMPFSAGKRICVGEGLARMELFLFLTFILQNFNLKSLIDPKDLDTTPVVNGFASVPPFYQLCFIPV
UniProt P08183, sequence (whole entry, looked up): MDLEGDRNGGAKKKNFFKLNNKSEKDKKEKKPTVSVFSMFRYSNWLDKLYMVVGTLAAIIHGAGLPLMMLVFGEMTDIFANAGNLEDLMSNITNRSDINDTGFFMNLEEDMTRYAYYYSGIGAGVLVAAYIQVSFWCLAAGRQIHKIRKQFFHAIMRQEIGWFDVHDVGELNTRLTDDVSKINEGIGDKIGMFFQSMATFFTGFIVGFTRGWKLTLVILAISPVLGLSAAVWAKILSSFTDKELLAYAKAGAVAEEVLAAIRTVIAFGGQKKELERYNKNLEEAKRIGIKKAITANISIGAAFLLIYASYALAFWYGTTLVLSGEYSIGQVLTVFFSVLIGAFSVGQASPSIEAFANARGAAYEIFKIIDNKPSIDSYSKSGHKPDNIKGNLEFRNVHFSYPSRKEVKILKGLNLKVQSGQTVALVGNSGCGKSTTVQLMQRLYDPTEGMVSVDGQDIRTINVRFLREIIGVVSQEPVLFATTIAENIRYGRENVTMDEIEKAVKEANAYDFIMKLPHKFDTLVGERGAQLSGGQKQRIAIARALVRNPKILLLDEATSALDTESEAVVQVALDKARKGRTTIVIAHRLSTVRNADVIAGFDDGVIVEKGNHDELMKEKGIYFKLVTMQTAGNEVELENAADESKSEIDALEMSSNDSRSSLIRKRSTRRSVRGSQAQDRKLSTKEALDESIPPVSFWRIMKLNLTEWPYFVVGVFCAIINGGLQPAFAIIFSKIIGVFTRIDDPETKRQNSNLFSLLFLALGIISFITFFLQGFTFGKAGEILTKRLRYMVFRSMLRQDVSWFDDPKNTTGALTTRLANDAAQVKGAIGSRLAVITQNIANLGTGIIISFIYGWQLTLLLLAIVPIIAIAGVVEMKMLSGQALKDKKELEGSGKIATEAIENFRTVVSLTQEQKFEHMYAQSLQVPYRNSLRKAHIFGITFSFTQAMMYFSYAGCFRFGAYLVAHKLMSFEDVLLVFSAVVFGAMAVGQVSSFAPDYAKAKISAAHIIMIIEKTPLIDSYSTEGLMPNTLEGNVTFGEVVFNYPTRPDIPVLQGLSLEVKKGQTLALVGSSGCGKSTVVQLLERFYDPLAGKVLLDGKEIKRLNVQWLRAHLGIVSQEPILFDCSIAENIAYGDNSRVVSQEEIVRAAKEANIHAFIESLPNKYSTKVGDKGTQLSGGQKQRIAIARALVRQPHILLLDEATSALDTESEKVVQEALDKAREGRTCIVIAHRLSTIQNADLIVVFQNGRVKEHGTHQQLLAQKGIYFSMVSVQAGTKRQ

SMILES	tested on	test	test system	conditions	how to read	quantity	value
CC(=O)NCCCC[C@@H]1NC(=O)[C@H](Cc2c[nH]c3c(C)cccc23)NC(=O)[C@H]([C@@H](C)O)NC(=O)[C@H](CC(N)=O)NC(=O)[C@@H](NC(C)=O)C(C)(C)SSC(C)(C)[C@@H](C(=O)N[C@@H](Cc2ccc(OCCN)cc2)C(=O)N[C@@H](Cc2ccc3ccccc3c2)C(=O)NC2(C(=O)N[C@@H](CCC(=O)O)C(=O)N[C@@H](CC(N)=O)C(=O)N[C@@H](Cc3cccnc3)C(=O)N(C)CC(N)=O)CCOCC2)NC1=O	ATP-dependent translocase ABCB1 (ABCB1, Homo sapiens, UniProt P08183)	transport, inhibitor	LLC-PK1 cells	concentration not given, with: [3H]digoxin	–	inhibition	no inhibition
C[C@@H](c1ccc2nccn2c1)n1nnc2ncc(-c3cn[nH]c3)nc21	Cytochrome P450 2C19 (CYP2C19, Homo sapiens, UniProt P33261)	enzyme activity, inhibitor	human, liver microsomes	–	–	IC50	> 50 µM
CNC(=O)C[C@H](Cc1ccncc1)NC(=O)[C@@H](Cc1cccc(Br)c1)NC(=O)[C@@H](N)Cc1cccc(F)c1	Huh-7-ACE2	CellTiter-Glo	–	0.000191 µM, 48 h, unit not given	relative to: DMSO	viability	1.12 and 1.05 and 1.01
COc1ccc(-n2cc(C(=O)N3C[C@]4(OC(=O)c5ccccc5NC(C)=O)CC[C@H](OC)[C@@]56[C@@H]4C[C@@H]([C@@H]35)[C@@]3(O)C[C@H](OC)[C@H]4C[C@@H]6[C@]3(O)[C@H]4OC)nn2)cc1	–	–	Sprague-Dawley rat, plasma	intravenous, 2 mg/kg, 0.167 h	–	plasma concentration	66.8 ng/mL
NC[C@]1(CC(=O)O)CC[C@H]([18F])CC1	–	PET, arterial plasma	rhesus monkey, plasma parent	intravenous, baseline	–	fast-phase half-life	2.86 min
CNC(=O)CC1CN(C(=O)c2ccc(C(F)(F)F)cn2)CCN1C(=O)c1cccnn1 (stereo not shown)	Huh-7-ACE2	CellTiter-Glo	–	0.781 µM, 48 h, unit not given	relative to: DMSO	viability	1.17 and 1.06 and 1.04
Cc1cc(-c2ccc3ccccc3c2)nnc1NCCN1CCN(C)CC1	Caco-2	Caco-2 permeability	apical to basolateral	5 µM, 0.5 h, with: valspodar 1.0 µM	–	recovery	53%
Cc1ccc(NS(=O)(=O)c2c(C(=O)N3CCCCCC3)c(C)n(C)c2C)c(Cl)c1	human cells	–	–	100 µM, 60 h	–	viability	97.2%
CNC(=O)C[C@H](Cc1ccc(F)cc1)NC(=O)[C@@H](Cc1ccc(Cl)cc1Cl)NC(=O)[C@H](N)Cc1ccccc1[N+](=O)[O-]	Huh-7-ACE2	CellTiter-Glo	–	6.25 µM, 48 h, unit not given	relative to: DMSO	viability	0.912 and 0.993 and 0.947
Cc1nc2cccc(OCC(C)(C)C(=O)NC(C)C)c2c(N)c1C(=O)[O-].[Na+]	Salmonella typhimurium	–	TA1537	5.0 mg per plate, without S9, preincubation	–	revertant colonies per plate	6 ± 4
COc1cc2c(cc1NC(=O)c1cncn1C)C[C@H]1[C@H]3CCCC[C@@]23CCN1C	–	–	C57BL/6 mouse, plasma	oral, 50 µg/g, 120 min	–	plasma concentration	5650 ng/mL
CCOc1ccc(CN2CC[C@H]2C(=O)NC)cc1-c1cccc(C(=O)NC[C@@H]2COC(C)(C)O2)c1	Huh-7-ACE2	CellTiter-Glo	–	0.000763 µM, 48 h, unit not given	relative to: DMSO	viability	0.904 and 0.829 and 0.895
O=C1NC2(CC2)COc2ncc(F)cc2[C@H]2COCCN2c2ccn3ncc1c3n2	–	–	Sprague-Dawley rat, male, testes	oral, 2.5 mg/kg/day, 4 weeks	–	organ weight	3.28 ± 0.332 g

Some of these lines once more:
SMILES	tested on	test	test system	conditions	how to read	quantity	value
CNC(=O)C[C@H](Cc1ccc(F)cc1)NC(=O)[C@@H](Cc1ccc(Cl)cc1Cl)NC(=O)[C@H](N)Cc1ccccc1[N+](=O)[O-]	Huh-7-ACE2	CellTiter-Glo	–	6.25 µM, 48 h, unit not given	relative to: DMSO	viability	0.912 and 0.993 and 0.947
